Published values gathered from unrelated publications.
Protocols differ between the studies behind these lines. Values joined by “and” are separate records of one study, mostly repeats; a detail may differ. Numbers after ± are the reported error.

C/C(=N\OCCCN1CCCCC1)c1ccc(C(F)(F)F)cc1
AUC(0-t) (mouse, plasma; oral, 50 mg/kg twice daily, day 1): 3420 ± 683 ng·h/mL

C=C/C=C/C[C@@H](C)[C@@H](O)[C@H]1C(=O)N[C@@H](CC)C(=O)N(C)CC(=O)N(C)[C@@H](CC(C)C)C(=O)N[C@@H](C(C)C)C(=O)N(C)[C@@H](CC(C)C)C(=O)N[C@@H](C)C(=O)N[C@H](C)C(=O)N(C)[C@@H](CC(C)C)C(=O)N(C)[C@@H](CC(C)C)C(=O)N(C)[C@@H](C(C)C)C(=O)N1C
body weight (male Wistar Kyoto rat; intraperitoneal, 0.5 mg/kg/day, day 28, at sacrifice): 310 ± 10 g

COCC12CCC(OC)C34C5CC6(O)C(OC)C(O)C(O)(C5C6OC(=O)c5ccccc5)C(C(OC)C13)C4N(C)C2 (stereo not shown)
Tmax (Sprague-Dawley rat, plasma; oral, dose not given, in PCW extract): 45 min

COc1ccnc(C(=O)N[C@H]2COC(=O)[C@H](Cc3ccccc3)[C@@H](OC(=O)C(C)C)[C@H](C)OC2=O)c1O
LD50 (rat; oral): > 2000 mg/kg

[2H]C([2H])([18F])[C@]([2H])(N)C(=O)O
half-life (PET; athymic nude mouse, blood): 0.73 min

C#Cc1c(F)ccc2cc(O)cc(-c3ncc4c(N5CC6CCC(C5)N6C(=O)OC(C)OC(=O)CC5CCCC5)nc(OC[C@@]56CCCN5C[C@H](F)C6)nc4c3F)c12 (stereo partly shown)
t1/2 (refers to: prodrug; mouse whole blood; 1 µM): 7.45 min

CC[C@H](C)[C@H](NC(=O)[C@H](CCCCN)NC(=O)CNC(=O)[C@H](CC(C)C)NC(=O)[C@H](Cc1ccccc1)NC(=O)[C@H](CCCCN)NC(=O)[C@H](CO)NC(=O)[C@H](Cc1ccccc1)NC(=O)[C@H](Cc1c[nH]c2ccccc12)NC(=O)[C@H](CCC(N)=O)NC(=O)[C@@H](NC(=O)[C@H](Cc1ccccc1)NC(=O)CCCCCNC(=O)CN1CCN(CC(=O)O)CCN(CC(=O)O)CCN(CC(=O)O)CC1)C(C)C)C(=O)N[C@@H](CCC(=O)O)C(=O)N1CCC[C@H]1C(=O)N[C@@H](CC(=O)O)C(=O)N[C@H](C(=O)N[C@@H](CO)C(=O)N[C@@H](CCC(N)=O)C(=O)N[C@H](C(=O)N[C@@H](CCC(N)=O)C(=O)N[C@@H](CC(=O)O)C(=O)N1CCC[C@H]1C(=O)N[C@@H](CC(N)=O)C(=O)N[C@@H](CC(=O)O)C(=O)N[C@@H](CCC(N)=O)C(=O)N[C@@H](Cc1ccc(O)cc1)C(=O)N[C@@H](CCC(=O)O)C(=O)N1CCC[C@H]1C(=O)N[C@@H](Cc1ccccc1)C(=O)O)C(C)C)C(C)C [copper-64 labelled]
SUVmean (dynamic PET; mouse, CT26 tumour, checkpoint inhibitor-treated, tumour; intravenous, 100 µCi/mouse, 1500 s): 4.65 SUV

COc1ccc(CNc2ccc3c(c2)S(=O)(=O)C=C3)cc1
CD45+ cells (flow cytometry; male C57BL/6 mice, spleen; i.p., 20 mg/kg, 8 days; baseline: splenocytes): 72.7%

CSCC[C@H](NC(=O)CNC(=O)[C@H](CCCCN)NC(=O)[C@H](CC(C)C)NC(=O)[C@@H]1CCCN1C(=O)[C@H](CO)NC(=O)[C@H](Cc1c[nH]cn1)NC(=O)[C@H](Cc1c[nH]c2ccccc12)NC(=O)[C@H](CCCNC(=N)N)NC(=O)[C@H](CC(C)C)NC(=O)[C@H](CCCNC(=N)N)NC(=O)[C@H](Cc1c[nH]c2ccccc12)NC(=O)[C@H](CS)NC(=O)CCCCCNC(=O)CN1CCN(CC(=O)O)CCN(CC(=O)O)CCN(CC(=O)O)CC1)C(=O)O [copper-64 labelled]
tissue uptake (ex vivo biodistribution; C57BL/6J mice bearing B16-F10 tumours, lung; intravenous, 1.85 MBq, 18 h): 5.14 %ID/g

CC[C@H](C)[C@H](NC(=O)CCCCCN1/C(=C/C=C/C=C/C2=[N+](CC)c3ccc(S(=O)(=O)O)cc3C2(C)C)C(C)(C)c2cc(S(=O)(=O)O)ccc21)C(=O)N[C@@H](CCC(=O)O)C(=O)N1CCC[C@H]1C(=O)NC(CS(=O)(=O)O)P(=O)(Oc1ccc(CCNC(=O)C2CCN(S(=O)(=O)c3ccccc3-c3c4ccc(=[N+]5CCc6ccccc65)cc-4oc4cc(N5CCc6ccccc65)ccc34)CC2)cc1)c1ccccc1 (stereo partly shown)
time to peak NIRF signal (refers to: granzyme B activity; BALB/c mice with 4T1 tumours, tumour; intravenous, 50 nmol): 2 h

CSCC[C@H](N)C(=O)N[C@@H](C)C(=O)N[C@@H](CCCNC(=N)N)C(=O)N[C@@H](CCCNC(=N)N)C(=O)N[C@@H](CC(=O)O)C(=O)N[C@@H](CCCCN)C(=O)N[C@H](C(=O)N[C@@H](CC(=O)O)C(=O)N[C@@H](Cc1ccccc1)C(=O)N[C@@H](C)C(=O)N[C@@H](CCCNC(=N)N)C(=O)N[C@@H](CCCNC(=N)N)C(=O)N[C@@H](CCCNC(=N)N)C(=O)N[C@@H](CCCNC(=N)N)C(=O)NCCCCCC(=O)NCCCCC(NC(=O)CCCCCNC(=O)[C@H](CCCNC(=N)N)NC(=O)[C@H](CCCNC(=N)N)NC(=O)[C@H](CCCNC(=N)N)NC(=O)[C@H](CCCNC(=N)N)NC(=O)[C@H](C)NC(=O)[C@H](Cc1ccccc1)NC(=O)[C@H](CC(=O)O)NC(=O)[C@@H](NC(=O)[C@H](CCCCN)NC(=O)[C@H](CC(=O)O)NC(=O)[C@H](CCCNC(=N)N)NC(=O)[C@H](CCCNC(=N)N)NC(=O)[C@H](C)NC(=O)[C@@H](N)CCSC)[C@@H](C)O)C(=O)NCCCCC(NC(=O)C(CCCCNC(=O)CCCCCNC(=O)[C@H](CCCNC(=N)N)NC(=O)[C@H](CCCNC(=N)N)NC(=O)[C@H](CCCNC(=N)N)NC(=O)[C@H](CCCNC(=N)N)NC(=O)[C@H](C)NC(=O)[C@H](Cc1ccccc1)NC(=O)[C@H](CC(=O)O)NC(=O)[C@@H](NC(=O)[C@H](CCCCN)NC(=O)[C@H](CC(=O)O)NC(=O)[C@H](CCCNC(=N)N)NC(=O)[C@H](CCCNC(=N)N)NC(=O)[C@H](C)NC(=O)[C@@H](N)CCSC)[C@@H](C)O)NC(=O)CCCCCNC(=O)[C@H](CCCNC(=N)N)NC(=O)[C@H](CCCNC(=N)N)NC(=O)[C@H](CCCNC(=N)N)NC(=O)[C@H](CCCNC(=N)N)NC(=O)[C@H](C)NC(=O)[C@H](Cc1ccccc1)NC(=O)[C@H](CC(=O)O)NC(=O)[C@@H](NC(=O)[C@H](CCCCN)NC(=O)[C@H](CC(=O)O)NC(=O)[C@H](CCCNC(=N)N)NC(=O)[C@H](CCCNC(=N)N)NC(=O)[C@H](C)NC(=O)[C@@H](N)CCSC)[C@@H](C)O)C(N)=O)[C@@H](C)O (stereo partly shown)
tissue distribution (C57BL/6 mouse female, uterus; dose not given, 6 h; baseline: total): 1.27% and 1.59% and 1.13%

N#[11C]c1ccc(-c2csc(NN=C3CCCC3)n2)cc1
radioactivity uptake (C57BL/6 mice, male, brain; intravenous, 3 MBq, 15 min): 0.65 ± 0.01 %ID/g

CC(C)C[C@@H](NC(=O)[C@@H](CCCCN)NC(=O)CNC(=O)CNC(=O)[C@@H]1CSSC[C@H](N)C(=O)NCC(=O)N[C@@H](CCCNC(=N)N)C(=O)N[C@@H](CCCNC(=N)N)C(=O)N[C@@H](C)C(=O)NCC(=O)NCC(=O)N[C@@H](CO)C(=O)N1)C(=O)N[C@H](C)C(=O)N[C@H](CCCCN)C(=O)N[C@H](CC(C)C)C(=O)N[C@H](C)C(=O)N[C@H](CCCCN)C(=O)N[C@H](CCCCN)C(=O)N[C@H](CC(C)C)C(=O)N[C@H](C)C(=O)N[C@H](CCCCN)C(=O)N[C@H](CC(C)C)C(=O)N[C@H](C)C(=O)N[C@H](CCCCN)C(=O)O
elimination rate constant (mouse; intravenous, 15.0 mg/kg): 0.47 ± 0.12 h⁻¹

CN1Cc2cc(Cl)ccc2-n2c(nnc2C2CCN(c3cccc([18F])n3)CC2)C1
tissue uptake (C57BL/6 mouse male, liver; intravenous, 3.7 MBq, 15 min): 21.2 ± 5.26 %ID/g

CC(C)[C@@H]1NC(=O)CNC(=O)[C@H](CC(N)=O)NC(=O)[C@H](CCCNC(=N)N)NC(=O)[C@H](Cc2ccc(O)cc2)NC(=O)[C@H](C(C)C)NC(=O)[C@@H](NC(=O)[C@@H](NC(=O)[C@H](CC(N)=O)NC(=O)[C@H](Cc2c[nH]c3ccccc23)NC(=O)[C@H](C)NC(=O)[C@H](Cc2ccccc2)NC(=O)CNC(=O)[C@H](CCCCN)NC(=O)[C@H](Cc2ccccc2)NC(=O)[C@H](Cc2ccccc2)NC(=O)[C@H](CCCCN)NC(=O)OCC2c3ccccc3-c3ccccc32)C(C)C)CSSC[C@@H](C(=O)N[C@@H](Cc2c[nH]cn2)C(=O)N[C@@H](CCCNC(=N)N)C(=O)N[C@@H](CCCNC(=N)N)C(=O)N[C@@H](C)C(=O)N[C@@H](CC(N)=O)C(N)=O)NC(=O)[C@H](C(C)C)NC(=O)[C@H](CCCNC(=N)N)NC1=O
remaining peptide (HPLC; mouse mammary gland homogenate; 2560 µM, 4.00 h, 37 °C, 50 mg/mL tissue): 81.1% and 74.9% and 79.7%

O=C1NC2(CC2)COc2ncc(F)cc2[C@H]2COCCN2c2ccn3ncc1c3n2
organ-to-body weight ratio (Sprague-Dawley rat, male, adrenals; oral, 20 mg/kg/day, 4 weeks, end of treatment): 0.015 ± 0.001%

CC(CCC(=O)NCC(=O)O)C1CCC2C3CCC4CC(OC5OC(C(=O)O)C(O)C(O)C5O)CCC4(C)C3CC(O)C12C (stereo not shown)
plasma concentration (women, T/T genotype, plasma; dose not given, geometric mean): 40.5 ng/mL

CC(=O)NCCCC[C@@H]1NC(=O)[C@H](Cc2c[nH]c3c(C)cccc23)NC(=O)[C@H]([C@@H](C)O)NC(=O)[C@H](CC(N)=O)NC(=O)[C@@H](NC(C)=O)C(C)(C)SSC(C)(C)[C@@H](C(=O)N[C@@H](Cc2ccc(OCCN)cc2)C(=O)N[C@@H](Cc2ccc3ccccc3c2)C(=O)NC2(C(=O)N[C@@H](CCC(=O)O)C(=O)N[C@@H](CC(N)=O)C(=O)N[C@@H](Cc3cccnc3)C(=O)N(C)CC(N)=O)CCOCC2)NC1=O
plasma protein binding (equilibrium dialysis; human, plasma; 0.1 µM): 52.6 ± 0.6%

Cc1nnc(-c2ccc(CC(=O)NCCCC[C@H](NC(=O)c3ccc(OCc4ccc(B(O)O)cc4)c(-c4nc5ccccc5c(=O)[nH]4)c3)C(=O)NCC(=O)NCC(=O)NCC(=O)N[C@@H](Cc3ccccc3)C(=O)N[C@@H](Cc3ccccc3)C(=O)O)cc2)nn1
remaining compound (UPLC-MS/MS; human serum; 100 µM, 2 h, 37 °C): 84.7%

Some of these lines once more:
CC[C@H](C)[C@H](NC(=O)[C@H](CCCCN)NC(=O)CNC(=O)[C@H](CC(C)C)NC(=O)[C@H](Cc1ccccc1)NC(=O)[C@H](CCCCN)NC(=O)[C@H](CO)NC(=O)[C@H](Cc1ccccc1)NC(=O)[C@H](Cc1c[nH]c2ccccc12)NC(=O)[C@H](CCC(N)=O)NC(=O)[C@@H](NC(=O)[C@H](Cc1ccccc1)NC(=O)CCCCCNC(=O)CN1CCN(CC(=O)O)CCN(CC(=O)O)CCN(CC(=O)O)CC1)C(C)C)C(=O)N[C@@H](CCC(=O)O)C(=O)N1CCC[C@H]1C(=O)N[C@@H](CC(=O)O)C(=O)N[C@H](C(=O)N[C@@H](CO)C(=O)N[C@@H](CCC(N)=O)C(=O)N[C@H](C(=O)N[C@@H](CCC(N)=O)C(=O)N[C@@H](CC(=O)O)C(=O)N1CCC[C@H]1C(=O)N[C@@H](CC(N)=O)C(=O)N[C@@H](CC(=O)O)C(=O)N[C@@H](CCC(N)=O)C(=O)N[C@@H](Cc1ccc(O)cc1)C(=O)N[C@@H](CCC(=O)O)C(=O)N1CCC[C@H]1C(=O)N[C@@H](Cc1ccccc1)C(=O)O)C(C)C)C(C)C [copper-64 labelled]
SUVmean (dynamic PET; mouse, CT26 tumour, checkpoint inhibitor-treated, tumour; intravenous, 100 µCi/mouse, 1500 s): 4.65 SUV

COc1ccc(CNc2ccc3c(c2)S(=O)(=O)C=C3)cc1
CD45+ cells (flow cytometry; male C57BL/6 mice, spleen; i.p., 20 mg/kg, 8 days; baseline: splenocytes): 72.7%

CSCC[C@H](NC(=O)CNC(=O)[C@H](CCCCN)NC(=O)[C@H](CC(C)C)NC(=O)[C@@H]1CCCN1C(=O)[C@H](CO)NC(=O)[C@H](Cc1c[nH]cn1)NC(=O)[C@H](Cc1c[nH]c2ccccc12)NC(=O)[C@H](CCCNC(=N)N)NC(=O)[C@H](CC(C)C)NC(=O)[C@H](CCCNC(=N)N)NC(=O)[C@H](Cc1c[nH]c2ccccc12)NC(=O)[C@H](CS)NC(=O)CCCCCNC(=O)CN1CCN(CC(=O)O)CCN(CC(=O)O)CCN(CC(=O)O)CC1)C(=O)O [copper-64 labelled]
tissue uptake (ex vivo biodistribution; C57BL/6J mice bearing B16-F10 tumours, lung; intravenous, 1.85 MBq, 18 h): 5.14 %ID/g
